Results from different studies.
Compare with care: the assays were run in different laboratories.
HLA class I histocompatibility antigen, A alpha chain: HLA class I histocompatibility antigen, A alpha chain (Homo sapiens, UniProt P04439)
Proteasome component C5/PSMB5 chymotrypsin-like site: Proteasome component C5/PSMB5, chymotrypsin-like site (Homo sapiens, UniProt P20618+P28074)
Sequence of UniProt P28074 (whole entry, looked up): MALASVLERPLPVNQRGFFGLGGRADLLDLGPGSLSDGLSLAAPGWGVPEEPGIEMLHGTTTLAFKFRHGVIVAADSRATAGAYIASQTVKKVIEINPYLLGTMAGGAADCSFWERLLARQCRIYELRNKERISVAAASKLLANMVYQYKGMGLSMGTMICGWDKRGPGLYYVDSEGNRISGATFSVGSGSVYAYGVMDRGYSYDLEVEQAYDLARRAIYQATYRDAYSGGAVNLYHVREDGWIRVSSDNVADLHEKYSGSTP
Sequence of UniProt P20618 (whole entry, looked up): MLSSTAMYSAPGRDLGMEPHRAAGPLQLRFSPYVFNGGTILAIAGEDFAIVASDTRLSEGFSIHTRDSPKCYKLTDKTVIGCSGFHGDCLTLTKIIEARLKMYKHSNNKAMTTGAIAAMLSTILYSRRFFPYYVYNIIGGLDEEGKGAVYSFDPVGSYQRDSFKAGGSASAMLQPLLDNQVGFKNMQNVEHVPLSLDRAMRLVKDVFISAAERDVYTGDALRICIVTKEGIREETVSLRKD
F2: Prothrombin (F2, Homo sapiens, UniProt P00734)
NEU1: Sialidase-1 (NEU1, Homo sapiens, UniProt Q99519)
Sequence of UniProt P53634 (whole entry, looked up): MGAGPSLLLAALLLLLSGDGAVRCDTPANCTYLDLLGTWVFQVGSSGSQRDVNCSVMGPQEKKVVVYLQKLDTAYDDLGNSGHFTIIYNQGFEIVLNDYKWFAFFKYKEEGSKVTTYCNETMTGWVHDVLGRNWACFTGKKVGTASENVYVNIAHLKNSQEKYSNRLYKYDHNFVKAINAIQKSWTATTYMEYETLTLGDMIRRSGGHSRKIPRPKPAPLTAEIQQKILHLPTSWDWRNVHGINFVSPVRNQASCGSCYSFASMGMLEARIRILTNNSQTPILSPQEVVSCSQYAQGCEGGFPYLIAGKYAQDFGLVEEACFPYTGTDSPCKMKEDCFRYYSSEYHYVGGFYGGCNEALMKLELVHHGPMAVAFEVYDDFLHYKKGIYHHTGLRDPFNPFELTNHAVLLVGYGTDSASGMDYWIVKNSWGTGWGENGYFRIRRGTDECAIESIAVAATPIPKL
Sequence of UniProt P52895 (whole entry, looked up): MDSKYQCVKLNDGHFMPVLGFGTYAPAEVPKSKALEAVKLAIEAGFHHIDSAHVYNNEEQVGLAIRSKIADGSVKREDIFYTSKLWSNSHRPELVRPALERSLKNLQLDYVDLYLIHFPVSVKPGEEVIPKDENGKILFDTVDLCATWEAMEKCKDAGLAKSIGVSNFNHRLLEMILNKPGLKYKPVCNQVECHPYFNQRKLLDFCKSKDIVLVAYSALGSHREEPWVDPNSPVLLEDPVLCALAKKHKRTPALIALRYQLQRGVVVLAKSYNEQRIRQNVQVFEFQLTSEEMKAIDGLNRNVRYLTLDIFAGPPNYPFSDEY
Sequence of UniProt P33535 (whole entry, looked up): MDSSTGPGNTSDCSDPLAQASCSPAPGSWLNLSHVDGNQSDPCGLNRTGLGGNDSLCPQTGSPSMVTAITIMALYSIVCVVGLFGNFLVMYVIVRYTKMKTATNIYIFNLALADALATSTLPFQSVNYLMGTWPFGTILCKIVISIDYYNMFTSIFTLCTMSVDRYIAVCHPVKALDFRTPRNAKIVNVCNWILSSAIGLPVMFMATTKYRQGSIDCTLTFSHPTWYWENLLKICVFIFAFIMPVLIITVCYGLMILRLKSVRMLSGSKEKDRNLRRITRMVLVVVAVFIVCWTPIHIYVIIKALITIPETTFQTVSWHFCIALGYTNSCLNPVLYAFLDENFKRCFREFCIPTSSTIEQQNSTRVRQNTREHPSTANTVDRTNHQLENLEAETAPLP
Sequence of UniProt Q13470 (whole entry, looked up): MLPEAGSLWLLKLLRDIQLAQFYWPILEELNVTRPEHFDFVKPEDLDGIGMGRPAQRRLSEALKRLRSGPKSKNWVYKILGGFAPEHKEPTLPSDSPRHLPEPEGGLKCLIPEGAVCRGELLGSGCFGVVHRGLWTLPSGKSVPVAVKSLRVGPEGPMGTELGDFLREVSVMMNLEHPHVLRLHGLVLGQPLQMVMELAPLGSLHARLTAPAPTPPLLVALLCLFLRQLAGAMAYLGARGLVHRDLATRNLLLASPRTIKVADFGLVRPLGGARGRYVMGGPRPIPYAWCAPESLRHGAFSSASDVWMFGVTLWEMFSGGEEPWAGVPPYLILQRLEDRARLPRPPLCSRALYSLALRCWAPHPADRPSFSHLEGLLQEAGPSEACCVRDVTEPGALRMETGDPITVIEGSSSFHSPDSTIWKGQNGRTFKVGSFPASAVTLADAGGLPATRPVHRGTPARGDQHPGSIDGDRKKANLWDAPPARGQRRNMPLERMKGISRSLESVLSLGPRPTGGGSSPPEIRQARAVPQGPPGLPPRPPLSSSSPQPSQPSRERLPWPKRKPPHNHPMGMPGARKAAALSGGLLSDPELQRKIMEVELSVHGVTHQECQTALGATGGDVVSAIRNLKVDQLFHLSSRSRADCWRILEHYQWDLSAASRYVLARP
Sequence of UniProt Q9P0L9 (whole entry, unmodified, looked up): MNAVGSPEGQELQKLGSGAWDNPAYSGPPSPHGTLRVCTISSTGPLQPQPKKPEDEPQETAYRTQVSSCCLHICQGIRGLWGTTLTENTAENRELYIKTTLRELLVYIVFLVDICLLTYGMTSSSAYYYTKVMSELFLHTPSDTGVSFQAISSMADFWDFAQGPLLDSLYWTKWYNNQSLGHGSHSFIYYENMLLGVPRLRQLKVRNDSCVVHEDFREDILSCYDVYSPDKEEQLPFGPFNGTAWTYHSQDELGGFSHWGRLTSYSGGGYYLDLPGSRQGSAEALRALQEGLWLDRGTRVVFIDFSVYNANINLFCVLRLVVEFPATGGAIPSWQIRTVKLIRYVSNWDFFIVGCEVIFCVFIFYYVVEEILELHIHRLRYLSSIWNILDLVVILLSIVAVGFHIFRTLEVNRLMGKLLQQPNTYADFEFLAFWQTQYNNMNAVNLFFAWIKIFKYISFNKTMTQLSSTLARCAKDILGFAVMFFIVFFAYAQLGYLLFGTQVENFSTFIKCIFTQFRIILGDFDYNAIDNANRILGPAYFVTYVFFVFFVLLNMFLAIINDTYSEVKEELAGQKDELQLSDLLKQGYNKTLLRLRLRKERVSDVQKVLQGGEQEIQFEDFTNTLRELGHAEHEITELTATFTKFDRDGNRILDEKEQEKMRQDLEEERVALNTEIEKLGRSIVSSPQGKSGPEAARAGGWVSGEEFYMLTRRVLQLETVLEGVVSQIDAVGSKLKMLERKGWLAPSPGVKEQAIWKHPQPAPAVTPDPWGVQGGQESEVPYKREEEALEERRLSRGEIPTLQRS
Sequence of UniProt P27487 (whole entry, looked up): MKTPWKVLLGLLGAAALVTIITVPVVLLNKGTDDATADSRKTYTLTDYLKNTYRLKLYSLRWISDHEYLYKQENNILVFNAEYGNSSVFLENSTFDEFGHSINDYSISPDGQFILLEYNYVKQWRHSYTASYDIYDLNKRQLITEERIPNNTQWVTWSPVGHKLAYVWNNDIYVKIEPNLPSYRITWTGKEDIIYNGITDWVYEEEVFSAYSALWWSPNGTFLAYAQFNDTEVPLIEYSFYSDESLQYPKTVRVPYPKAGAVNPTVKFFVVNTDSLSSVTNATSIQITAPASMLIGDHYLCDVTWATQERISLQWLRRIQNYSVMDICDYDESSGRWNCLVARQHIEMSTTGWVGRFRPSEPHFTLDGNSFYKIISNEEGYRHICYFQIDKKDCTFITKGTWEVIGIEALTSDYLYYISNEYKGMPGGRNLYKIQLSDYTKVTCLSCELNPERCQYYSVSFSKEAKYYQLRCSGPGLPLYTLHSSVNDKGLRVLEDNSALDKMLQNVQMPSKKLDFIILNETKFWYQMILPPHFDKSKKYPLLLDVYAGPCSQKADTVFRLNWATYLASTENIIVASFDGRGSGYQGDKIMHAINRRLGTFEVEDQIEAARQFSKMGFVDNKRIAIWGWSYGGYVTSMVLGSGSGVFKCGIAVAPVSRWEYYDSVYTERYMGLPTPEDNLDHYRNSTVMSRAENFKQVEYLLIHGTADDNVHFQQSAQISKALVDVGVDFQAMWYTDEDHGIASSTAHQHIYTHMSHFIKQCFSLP
Sequence of UniProt P42574 (whole entry, looked up): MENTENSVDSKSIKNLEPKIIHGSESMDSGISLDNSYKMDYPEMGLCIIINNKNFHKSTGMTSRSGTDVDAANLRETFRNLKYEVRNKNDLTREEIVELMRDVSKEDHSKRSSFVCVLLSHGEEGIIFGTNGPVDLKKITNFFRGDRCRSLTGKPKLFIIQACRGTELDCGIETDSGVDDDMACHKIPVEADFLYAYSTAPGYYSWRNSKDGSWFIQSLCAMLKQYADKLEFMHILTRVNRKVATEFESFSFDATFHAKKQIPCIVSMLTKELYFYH
Sequence of UniProt P30575 (whole entry, looked up): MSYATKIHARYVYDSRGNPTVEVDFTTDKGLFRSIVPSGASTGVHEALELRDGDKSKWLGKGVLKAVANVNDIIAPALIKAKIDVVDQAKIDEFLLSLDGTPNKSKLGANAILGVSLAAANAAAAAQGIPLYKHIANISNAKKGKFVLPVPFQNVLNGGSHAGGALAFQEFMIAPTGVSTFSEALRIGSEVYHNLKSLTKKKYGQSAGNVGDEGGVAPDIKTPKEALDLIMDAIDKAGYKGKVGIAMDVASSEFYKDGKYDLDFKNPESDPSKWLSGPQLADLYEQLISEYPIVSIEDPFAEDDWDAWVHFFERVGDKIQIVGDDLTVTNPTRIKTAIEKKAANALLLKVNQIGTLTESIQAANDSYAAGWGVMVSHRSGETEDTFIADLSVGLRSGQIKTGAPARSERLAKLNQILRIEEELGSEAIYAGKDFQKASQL

`CSCC[C@H](NC(=O)[C@@H](N)Cc1ccc(O)cc1)C(=O)N[C@@H](CC(=O)O)C(=O)N1CCC[C@H]1C(=O)N[C@H](C(=O)N1CCC[C@H]1C(=O)N[C@@H](CC(C)C)C(=O)N[C@@H](CCC(N)=O)C(=O)N[C@@H](Cc1ccccc1)C(=O)O)C(C)C` has an IC50 of 22300 nM (HLA class I histocompatibility antigen, A alpha chain; cell-free assay).
`COc1ccc(C[C@H](NC(=O)[C@H](C)NC(=O)C23CC4CC(CC(C4)C2)C3)C(=O)N[C@@H](CC(C)C)C(=O)C(=O)Nc2ccccc2)cc1` gave an IC50 of 1450 nM (Proteasome component C5/PSMB5 chymotrypsin-like site; enzyme activity in cells, inhibitor).
With `C[N+]12CCC(CC1)[C@@H](Cc1nc(-c3cccs3)no1)C2` the IC50 was 140 nM (CHRNA9 (Homo sapiens, UniProt Q9UGM1); ion current, antagonist, two-electrode voltage clamp; oocytes).
`O=C(O)C(F)(F)C(F)(F)C(F)(F)C(F)(F)C(F)(F)C(F)(F)C(F)(F)C(F)(F)C(F)(F)C(F)(F)C(F)(F)F` has an IC50 of 15100 nM (AKR1C2 (Homo sapiens, UniProt P52895); enzyme activity, inhibitor, fluorescence).
The IC50 of `CCCCOc1cc(C(=O)NCCN(CC)CC)c2ccccc2n1` is reported as 17200 nM (PKD2L1 (Homo sapiens, UniProt Q9P0L9, F549H); ion current, inhibitor, patch clamp).
`[2H]c1c([2H])c([C@]2([2H])CCCN2C(=O)C(C)(C)Oc2ccc3cn[nH]c3c2)c([2H])c([2H])c1C([2H])([2H])[2H]` gave a remaining binding of 100% (TNK1 (Homo sapiens, UniProt Q13470); binding, competition with immobilised ligand; 1 µM).
For `CSCC[C@H](NC(=O)[C@@H](N)Cc1ccc(O)cc1)C(=O)N[C@@H](Cc1ccc(O)cc1)C(=O)N[C@H](C(=O)N[C@@H](CCCCN)C(=O)N[C@@H](Cc1ccccc1)C(=O)N[C@@H](Cc1c[nH]cn1)C(=O)N[C@H](C(=O)N[C@@H](Cc1ccc(O)cc1)C(=O)O)[C@@H](C)O)[C@@H](C)O`, the IC50 was 100 nM (HLA class I histocompatibility antigen, A alpha chain; cell-free assay).
For `CC(C)[C@H](N)C(=O)N1CCC[C@H]1C(=O)N[C@H](C(=O)N1CCC[C@H]1C(=O)N[C@@H](CC(=O)O)C(=O)O)C(C)C`, the IC50 was 74500 nM (DPP4 (Homo sapiens, UniProt P27487); enzyme activity, inhibitor, absorbance; pH 8).
The IC50 of `CCC(C(=O)Nc1cc(NC2CCNC2)ccc1C)n1cc(Br)cc2nc(SCc3ccc(F)cc3)nc1-2` (stereo not drawn) is reported as over 100000 nM (F2; enzyme activity, inhibitor).
For `CCC1(COCc2ccccc2F)CCC(C)(C)O1` (stereo not drawn), the IC50 was 13000 nM (ADRB2 (Homo sapiens, UniProt P07550); calcium signal, antagonist, fluorescence).
`CC[C@H](C)[C@H](NC(=O)[C@@H]1CCCN1C(=O)[C@H](CC(=O)O)NC(=O)[C@H](CCSC)NC(=O)[C@@H](N)Cc1ccc(O)cc1)C(=O)N1CCC[C@H]1C(=O)N[C@@H](Cc1c[nH]cn1)C(=O)N[C@@H](CCC(N)=O)C(=O)N[C@@H](Cc1ccc(O)cc1)C(=O)O` has an IC50 of 364 nM (HLA class I histocompatibility antigen, A alpha chain; cell-free assay).
With `O=C(O)CP(=O)(O)CO` the IC50 was over 50000 nM (ENO1 (Candida albicans, UniProt P30575); enzyme activity, inhibitor, absorbance).
The IC50 of `CSCC[C@H](NC(=O)[C@H](Cc1ccc(O)cc1)NC(=O)[C@@H](NC(=O)[C@@H]1CCCN1C(=O)[C@H](Cc1ccc(O)cc1)NC(=O)[C@H](CCC(N)=O)NC(=O)[C@@H](N)Cc1c[nH]cn1)C(C)C)C(=O)N[C@@H](CCC(N)=O)C(=O)N[C@@H](Cc1ccc(O)cc1)C(=O)O` is reported as 147 nM (HLA class I histocompatibility antigen, A alpha chain; cell-free assay).
`CC(C)(C)c1cn([C@H]2[C@H]([C@H](O)[C@H](O)CO)OC(C(=O)O)=C[C@@H]2O)nn1` gave an IC50 of 220000 nM (NEU1; enzyme activity, inhibitor).
`CC[C@H](C)[C@H](NC(=O)[C@@H](N)CCCCN)C(=O)N[C@@H](Cc1ccccc1)C(=O)N1CCC[C@H]1C(=O)N[C@H](C(=O)N1CCC[C@H]1C(=O)N[C@@H](CC(C)C)C(=O)N[C@@H](CCCCN)C(=O)N[C@@H](Cc1ccccc1)C(=O)O)C(C)C` gave an IC50 of 220 nM (HLA class I histocompatibility antigen, A alpha chain; cell-free assay).
The IC50 of `CCC(C(=O)Nc1cc(NC2CNC2)ccc1C)n1cccc2nc(SCc3ccc(F)cc3)nc1-2` (stereo not drawn) is reported as over 100000 nM (Caspase-3 (CASP3, Homo sapiens, UniProt P42574); enzyme activity, inhibitor).
The IC50 of `CC(C)C[C@H](NC(=O)OCc1ccccc1)C(=O)N[C@@H](Cc1c[nH]c2ccccc12)C(=O)N[C@@H](CC(C)C)C(=O)C(=O)Nc1cccc(S(C)(=O)=O)c1` is reported as 56.2 nM (Proteasome component C5/PSMB5 chymotrypsin-like site; enzyme activity in cells, inhibitor).
With `CCCCCCN[C@H]1[C@H]([C@H](O)[C@H](O)CO)OC(C(=O)O)=C[C@@H]1O` the IC50 was 95000 nM (NEU1; enzyme activity, inhibitor).
The IC50 of `CCC(C(=O)Nc1cc(NC2CCOCC2)ccc1C)n1cc(Br)cc2nc(SCc3ccc(F)cc3)nc1-2` (stereo not drawn) is reported as over 100000 nM (F2; enzyme activity, inhibitor).
For `CC(C)CNC(=O)N[C@H]1[C@H]([C@H](O)[C@H](O)CO)OC(C(=O)O)=C[C@@H]1O`, the IC50 was over 500000 nM (NEU1; enzyme activity, inhibitor).
`CSCC[C@H](NC(=O)[C@@H](N)CCCNC(=N)N)C(=O)N[C@@H](Cc1ccc(O)cc1)C(=O)N[C@@H](CC(=O)O)C(=O)N[C@@H](CCCNC(=N)N)C(=O)N[C@@H](Cc1c[nH]cn1)C(=O)N[C@@H](Cc1ccc(O)cc1)C(=O)N[C@@H](CC(C)C)C(=O)N[C@@H](Cc1ccccc1)C(=O)O` gave an IC50 of 60 nM (HLA class I histocompatibility antigen, A alpha chain; cell-free assay).
With `CC(C)Cc1cn([C@H]2[C@H]([C@H](O)[C@H](O)CO)OC(C(=O)O)=C[C@@H]2O)nn1` the IC50 was 70000 nM (NEU1; enzyme activity, inhibitor).
`COc1ccc(C[C@H](NC(=O)[C@H](C)NC(=O)CN2CCOCC2)C(=O)N[C@@H](CC(C)C)C(=O)C(=O)Nc2ccccc2)cc1` gave an IC50 of 724 nM (Proteasome component C5/PSMB5 chymotrypsin-like site; enzyme activity in cells, inhibitor).
The IC50 of `CC(C)C[C@H](NC(=O)[C@H]1O[C@@H]1C(=O)O)C(=O)NCCCCN=C(N)N` is reported as 460 nM (CTSC (Homo sapiens, UniProt P53634); enzyme activity, inhibitor).
The IC50 of `CCC(C(=O)Nc1cc(NC2CCNCC2)ccc1C)n1cc(Cl)cc2nc(SCc3ccc(F)cc3)nc1-2` (stereo not drawn) is reported as over 100000 nM (Serine protease 1 (PRSS1, Homo sapiens, UniProt P07477); enzyme activity, inhibitor).
The IC50 of `CC[C@H](C)[C@H](NC(=O)[C@@H]1CCCN1C(=O)CNC(=O)[C@@H]1CCCN1C(=O)[C@H](Cc1ccc(O)cc1)NC(=O)[C@H](CC(C)C)NC(=O)[C@@H](N)CCCCN)C(=O)N[C@@H](CC(C)C)C(=O)N[C@@H](CCSC)C(=O)O` is reported as 375 nM (HLA class I histocompatibility antigen, A alpha chain; cell-free assay).
For `CCC(C(=O)Nc1cc(NC2COC2)ccc1C)n1cc(Br)cc2nc(SCc3ccc(F)cc3)nc1-2` (stereo not drawn), the IC50 was over 100000 nM (F2; enzyme activity, inhibitor).
`CC[C@H](C)[C@H](NC(=O)[C@H](Cc1c[nH]cn1)NC(=O)CNC(=O)[C@H](Cc1ccc(O)cc1)NC(=O)[C@H](CCC(N)=O)NC(=O)[C@@H](N)Cc1c[nH]cn1)C(=O)N[C@@H](CC(C)C)C(=O)N[C@@H](CCC(N)=O)C(=O)N[C@@H](Cc1ccc(O)cc1)C(=O)O` gave an IC50 of 3.9 nM (HLA class I histocompatibility antigen, A alpha chain; cell-free assay).
`Oc1cccc(CCN(CCc2ccccc2)CC2CCC2)c1` has an IC50 of 2800 nM (Oprm1 (Rattus norvegicus, UniProt P33535); β-arrestin recruitment, antagonist).
With `CC(C)C[C@H](NC(=O)OCc1ccccc1)C(=O)N[C@@H](CC(C)C)C(=O)N[C@@H](CC(C)C)C(=O)C(=O)Nc1cccc2ncccc12` the IC50 was 102 nM (Proteasome component C5/PSMB5 chymotrypsin-like site; enzyme activity in cells, inhibitor).

A few entries again:
`CC(C)(C)c1cn([C@H]2[C@H]([C@H](O)[C@H](O)CO)OC(C(=O)O)=C[C@@H]2O)nn1` gave an IC50 of 220000 nM (NEU1; enzyme activity, inhibitor).
`CC[C@H](C)[C@H](NC(=O)[C@@H](N)CCCCN)C(=O)N[C@@H](Cc1ccccc1)C(=O)N1CCC[C@H]1C(=O)N[C@H](C(=O)N1CCC[C@H]1C(=O)N[C@@H](CC(C)C)C(=O)N[C@@H](CCCCN)C(=O)N[C@@H](Cc1ccccc1)C(=O)O)C(C)C` gave an IC50 of 220 nM (HLA class I histocompatibility antigen, A alpha chain; cell-free assay).
The IC50 of `CCC(C(=O)Nc1cc(NC2CNC2)ccc1C)n1cccc2nc(SCc3ccc(F)cc3)nc1-2` (stereo not drawn) is reported as over 100000 nM (Caspase-3 (CASP3, Homo sapiens, UniProt P42574); enzyme activity, inhibitor).
The IC50 of `CC(C)C[C@H](NC(=O)OCc1ccccc1)C(=O)N[C@@H](Cc1c[nH]c2ccccc12)C(=O)N[C@@H](CC(C)C)C(=O)C(=O)Nc1cccc(S(C)(=O)=O)c1` is reported as 56.2 nM (Proteasome component C5/PSMB5 chymotrypsin-like site; enzyme activity in cells, inhibitor).
